Experimental data of several laboratories.
Numbered parts are unrelated; each lists some results of a single study.

Sample 1
Target: Ras GTPase-activating protein-binding protein 1, full length (G3BP1, Homo sapiens, UniProt Q13283)
Chain of UniProt Q13283 (whole entry, looked up): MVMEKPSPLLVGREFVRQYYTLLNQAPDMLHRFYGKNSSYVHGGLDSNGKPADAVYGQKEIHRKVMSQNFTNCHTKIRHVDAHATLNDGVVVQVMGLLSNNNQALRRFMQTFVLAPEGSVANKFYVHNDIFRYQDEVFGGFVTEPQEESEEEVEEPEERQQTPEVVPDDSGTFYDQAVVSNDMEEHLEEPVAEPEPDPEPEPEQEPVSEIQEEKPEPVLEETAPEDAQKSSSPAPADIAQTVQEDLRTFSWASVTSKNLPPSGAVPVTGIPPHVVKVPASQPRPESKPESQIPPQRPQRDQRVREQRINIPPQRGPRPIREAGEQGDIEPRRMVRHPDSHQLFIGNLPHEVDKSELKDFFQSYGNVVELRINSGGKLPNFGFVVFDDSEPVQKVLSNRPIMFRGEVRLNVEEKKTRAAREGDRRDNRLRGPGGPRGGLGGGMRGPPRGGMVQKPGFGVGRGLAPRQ
Technique: RNA Bind-n-Seq
Molecule type: RNA
Sample: in vitro
Tested at: 200 nM
Setting: whole 134-nt RNA, ends assumed
Together with: 150 mM KCl
Baseline: input library
Direction: higher = stronger binding
Constant ends, left off below: GGGAGUUCUACAGUCCGACGAUC … UGGAAUUCUCGGGUGUCAAGG
Oligonucleotide	log2 enrichment
CCUCAAGUCCUGUGCUACACAUCGUAUGUACCGAAUCGGGAAGGAAGGAAGGGAAAGUAUUAUGUUACGCCGUUCGGAUCUGCACUUCCA	-0.538
AAGAUUUAGAGAUGAAUUAAAUUUAAUUAGGGGUUGCUAAGAAGCGAGCACUGACCAGAUAAGAAUGCUGGUUUUCCUAAAUGCAGUGAA	-0.523
UCCUGUGCUACACAUCGUAUGUACCGAAUCGGGAAAAAGGGAAAAAAAGGGAAAAAGGGAAAGUAUUAUGUUACGCCGUUCGGAUCUGCA	-0.385
CACAGACAACACGCACCCACACAGACACAGAGGGAAGGGGUUGGGAUGGGGACAGCGUGCACAGCAGGGCGGGGUAGGACCCCAGCCCCU	1.74
CUCAAGUCCUGUGCUACACAUCGUAUGUACCGAAUCGGGUGGGAGGGUUUGGGAAAGUAUUAUGUUACGCCGUUCGGAUCUGCACUUCCA	1.1
CAAGUCCUGUGCUACACAUCGUAUGUACCGAAUCGGCCCCGGCCCCGGGCCCCGGGAAAGUAUUAUGUUACGCCGUUCGGAUCUGCACUU	-0.502
ACCAUGCAGGUGGGCAUCUUUGGGAAGUGGGGCAAGGGGGUGAUAGGGAGGGGGGUAACACUUUGGGAACAGGUGGUCCCAGGUCGUUUC	1.2
UAACUUUAGAGGAGGAUCUGAUGGAUAUGGCAGUGGACGCGGAUUUGGGGAUGGCUAUAAUGGGUAUGGAGGAGGACCUGGAGGUGGCAA	0.211
CAAGUCCUGUGCUACACAUCGUAUGUACCGAAUCGGGCCCGGCCCGGGGCCCGGGAAAGUAUUAUGUUACGCCGUUCGGAUCUGCACUUC	-0.702
CAAGUCCUGUGCUACACAUCGUAUGUACCGAAUCGGCCCGGGGCCCGGGCCCGGGAAAGUAUUAUGUUACGCCGUUCGGAUCUGCACUUC	-0.506
UGGGUUCUUAUUUCUAACUUGCAUAUGUUUUGUUUUUCAGAAGGAGUUGAGCCUUCCAAGAAGAGGCAGCUUGUAAGUAGAUGAUUAUUA	-1.4
CCUCAAGUCCUGUGCUACACAUCGUAUGUACCGAAUCGGAGGAGGGGAGGGGAAAGUAUUAUGUUACGCCGUUCGGAUCUGCACUUCCAG	0.489
CACAGACAACACGCACCCACACAGACACAGAGGGAAGGGGUUGUGAUGGGGACAGGGUGCACAGCAGGGCGGGGUAGGACCCCAGCCCCU	1.45
UGGGAGGUGGAUUUAGUUUAUUUUUUUAGCUCAUUUCCAGGGGUGGGAAUUUUUUUUUAAUAUGUGUCAUGAAUAAAGUUGUUUUUGAAA	0.163

Sample 2
Target: RING finger protein unkempt homolog, zinc fingers 1-6, SBP tag (UNK, Homo sapiens, UniProt Q9C0B0, residues 30-357)
Chain of UniProt Q9C0B0 (30-357, looked up): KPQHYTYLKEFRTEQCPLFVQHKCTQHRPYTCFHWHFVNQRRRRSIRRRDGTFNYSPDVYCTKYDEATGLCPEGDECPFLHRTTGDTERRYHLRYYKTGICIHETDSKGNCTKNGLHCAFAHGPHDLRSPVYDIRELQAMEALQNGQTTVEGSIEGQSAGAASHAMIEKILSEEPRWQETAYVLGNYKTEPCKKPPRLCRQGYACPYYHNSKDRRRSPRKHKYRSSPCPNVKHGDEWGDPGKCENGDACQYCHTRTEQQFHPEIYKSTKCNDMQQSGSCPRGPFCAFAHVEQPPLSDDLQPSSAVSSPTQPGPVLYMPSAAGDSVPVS
Technique: RNA Bind-n-Seq
Molecule type: RNA
Sample: in vitro
Tested at: 100 nM
Setting: RNA with constant flanks, vertebrate orthologous sites, ends assumed
Baseline: input RNA pool
Direction: higher = stronger binding
Constant ends, left off below: GGGAGUUCUACAGUCCGACGAUC … CAACAGAGGAUUGAGCAUCA
Oligonucleotide	bound/input enrichment [ratio]
GUUGCGAUCCCUUUAAUAUGCACAGAAAACUAUCAAAGAAAAACUUGCGUGCAAUUGACCUGCAUGACGCAACUUUUCUAACUGCCAAGUUUGGAAGACAGUUUGUACCUGGUUGGAAGC	0.441
GUACUACCUGUGCGAAUUUCACAACACUGAAUGCAAAGUAGCAAUUUUCAUAGUCACAGUUAAAUAGCUUUAGGGCAAUAUUGCCUUGGUUUUACUCAUGUGCAGGUUUUAAAAAUGUAC	1.18
AGCAACUCAAGGAUUCAGGACUGGUUUUACAAAUAUCCCAAGUAGAUAUGGAACUAGCACUCGAGGUCAACCACAUCCAUAAUAAACUCUAAUUUGUAUUAUUUAUUAUACUUAAGGGUA	0.613
AAAUUUAUUUCAUGCCCUGGACUCCCUACCGCACUGAUACUUUAAUAGAGUAUGCUUCUAUAGAAGAUUUCCAAAACAGUCGCCAGACAACAACAUACAAACUUCCAAACCGAGUAGAUG	1.07
UGCCGGGCUGGCCCCAGUCCCACCUCUGUUUAUUCUGUACUACAACCUGUAAAUAACAUUUAGCAUUCCUAUUGUAACAAAAUUAAUUUUUAUGAAAUAAAUUAUAUUUCCUAGUCUAAU	1.43
ACGUAGAGAAAAAUCUCAUGGACCCCUCCCCCAAUUUGUGAAACUCCCUAGAAAUUUAUUUGGAAUCUUAAUUUUUCUAAUUCAGGCUCACUGCAUUAGUCAUUUUUAGCCCCUAAUUAA	2.06
AGGACCUCCAGUAGGCAAAUUCAGGGAGGGGCAGGCUUCAGGGAAUAUAAAUUAAUAUCAUAGUGGUCAUGAAGAAUAACUUUGAUUUAACUGAUUUGCGGGGAGUGAUGACAACUUCUG	0.732
CCUACAAUAAUGAAAACCUACAGGAAUUUUUUUAUUUUUCAUUUUCUCCUUAGGCAUAUUUAGUAUUUUUCCCCCAGGCAGAUCAUUCUGAGUGUGCGAGUGUGUGUGCACAUGUUACAA	2.16
UGCACAUGCGCUAUCACCAAAACCAAACUGCCACUUUUCAAAUUUCAUUCAGAACCAUUUGUGUCUCCUAUUCCCUACCCUUCCCACCUGUUUCAAUGAUGAAAUAUUUCUGUUCUCCUU	1.48
AACUGUUGUGUGAAAUGUCUAUCCAGAUAAGUGUCACCUUAUAAAUAUUAUCAAAUAAUUUAGCUAGAUUCUUCUUAAGUAAUAAAUUAUUUGUCAAGCAUUUAAAGUGAAUUUGAAAUG	0.242
ACAAUAGCUUCUGCUUCACUAAGAGCGUAAAAAUAGUCCCACAAAUAUAAAACUCCUAAAGAGCUAUUUUUUAAAUAAAAAUGUUUAAAUUUUGUAAAUCACUUGAUGCCACAACACAAC	1.09

Sample 3
Target: Sal-like protein 4, full length isoform A (SALL4, Homo sapiens, UniProt Q9UJQ4, residues 1-1053)
Chain of UniProt Q9UJQ4 (whole entry, looked up): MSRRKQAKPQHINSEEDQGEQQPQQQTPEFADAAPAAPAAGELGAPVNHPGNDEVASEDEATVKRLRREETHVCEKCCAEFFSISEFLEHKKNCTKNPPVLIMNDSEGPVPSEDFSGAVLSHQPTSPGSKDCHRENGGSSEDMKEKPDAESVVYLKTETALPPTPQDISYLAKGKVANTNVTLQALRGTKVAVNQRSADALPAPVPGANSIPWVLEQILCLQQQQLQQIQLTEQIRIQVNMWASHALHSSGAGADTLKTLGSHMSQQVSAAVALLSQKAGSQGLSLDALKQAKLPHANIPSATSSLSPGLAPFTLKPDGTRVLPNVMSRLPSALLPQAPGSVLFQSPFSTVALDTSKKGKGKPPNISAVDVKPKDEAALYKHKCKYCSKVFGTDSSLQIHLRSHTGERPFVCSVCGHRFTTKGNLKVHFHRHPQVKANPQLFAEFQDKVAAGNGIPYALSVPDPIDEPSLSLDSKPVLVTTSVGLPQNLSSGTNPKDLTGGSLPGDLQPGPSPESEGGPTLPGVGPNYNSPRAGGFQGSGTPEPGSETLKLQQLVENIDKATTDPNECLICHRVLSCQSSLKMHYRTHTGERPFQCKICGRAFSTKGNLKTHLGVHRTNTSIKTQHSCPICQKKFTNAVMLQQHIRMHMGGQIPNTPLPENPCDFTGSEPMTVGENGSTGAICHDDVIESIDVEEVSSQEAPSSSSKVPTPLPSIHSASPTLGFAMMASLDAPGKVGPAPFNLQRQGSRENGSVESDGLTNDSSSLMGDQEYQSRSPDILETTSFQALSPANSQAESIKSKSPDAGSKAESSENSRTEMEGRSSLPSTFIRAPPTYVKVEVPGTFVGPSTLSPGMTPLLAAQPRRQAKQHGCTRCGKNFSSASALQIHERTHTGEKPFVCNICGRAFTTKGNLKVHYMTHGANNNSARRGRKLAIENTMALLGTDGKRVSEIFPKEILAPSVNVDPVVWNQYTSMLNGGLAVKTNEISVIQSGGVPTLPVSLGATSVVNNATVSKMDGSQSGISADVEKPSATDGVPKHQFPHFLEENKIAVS
Technique: universal PBM
Molecule type: double-stranded DNA, one strand shown
Sample: in vitro
Tested at: 600 nM
Setting: 8-mer, flanks averaged, mean of replicates
Direction: higher = stronger binding
Oligonucleotide	E-score
CCACTTGA	0.0435
GGTAAGAC	-0.126
TCAGAAGA	-0.0361
ACGATCCT	-0.042
AGTTCCAA	0.119
AACTGCAC	0.0463
GAAAACCC	-0.052
ATTTCCAA	0.209
CAGTACAC	-0.0335
ACAACCCG	-0.13
AAGTGTGC	0.0646
CTGGCCAC	-0.184
GATTCCCC	-0.258
CCCGGCCC	-0.422
GAAGCGTA	-0.0751
CGCTTCCG	-0.249
GCCATCCC	-0.279
ACAGAGAA	0.0319
AACCTCTC	0.00042
CAGAGCGG	-0.132
AGTGCATC	-0.00534
ACTGCAAT	0.0508
AAGCGGTC	-0.248
CTGTCTGC	-0.0996

Sample 4
Target: RNA binding protein fox-1 homolog 2, RRM domain, GST-SBP tag (RBFOX2, Homo sapiens, UniProt O43251-10, residues 100-194)
Technique: RNA Bind-n-Seq
Molecule type: RNA
Sample: in vitro
Tested at: 365 nM
Setting: natural RNA segment, single round, ends assumed
Baseline: no-protein control
Direction: higher = stronger binding
Constant ends, left off below: GGGAGUUCUACAGUCCGACGAUC … UGGAAUUCUCGGGUGCCAA
Target sequence (chain): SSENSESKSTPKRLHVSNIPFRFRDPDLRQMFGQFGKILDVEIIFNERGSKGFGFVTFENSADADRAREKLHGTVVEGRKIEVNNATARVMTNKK
Oligonucleotide	RBNS enrichment (R)
GGGGCUUUUGUACCUUGUUGGAGAUGCCACCUCAGAAGUUCACACUGUGCAGGAAAAAGGUUUUAUUCUCUCCUGGCAUACAUUAGAAUGUCAGAUGCUUGCAUCCAUGU	0.559
ACUUCUUUGCAUAUGACAAUACUUAUUUGUAUAUAAGAGAAAGAACGAAAUAACCUUUAUUGAAAUAAAGAUACUAUGCAAGAAAAUGUACAGUUGUCGAAGUGGAGAAA	0.688
AUGGUUCCCCACUCUAAUUCCAUUACUGAAGAUUAAGCCCAGGCAGGGACUUGCUCAUUCUAGGCAAGUGCUCUACCACUGAGCGGGAGUCACCCCUACUUCCUGGAUAG	0.336
AGCUGACAUAGUGUUCUGCCAUGUAAUGUUUAUAGCUGCUGAUGUAUGCACAUUUGGGGGUAUAUCUAUUUCUGAAGAGGUAAGCUGAUCAAAAUAAAUAGAGUGUAAAU	0.447
UAAACGAUACCUUGUUCUUGGAACUGCAUGCUGCCAAGUGCCAUUCGUACUGAGCAUCCUCAUUUCAACGCAGUAUACGCUCUAGUUAUCAUGUGUAACGUGGGUCUGUU	9.74
CCUGACCCUCAGUUCCCAGAGGACCUAGAGGCUCGAGGGUGGGGCCUGCCUUUCUUGAUGUCCAAUGAUGGGGCCUGGAAUGUAUGAGCUAGCAAGGCUUCUUCAGCUUA	0.747
AUGUUAUCUUUCUUGCAAGAGUAAUUUAAGCACAUGGGAAAGAUUCUAGACUUUUUGUUUCUUGCAACAACAGUGCCCUCUGCUGCUAGAAACCUUUUUCUACUUACUAU	0.347
GCUGACCUCUUAGAGCCGCACAGAUGUGCUAGCCACCAAAAACCUCCUGUAACCAUGCAAGCCUGUAGUUGAGUGAUGACCAUACAUAUGGACAGGGUCCCCUCCUGCUG	1.06
AACGCUGACUUAGGCACUCAGAGACAUACGCCUCUUGCGGAUGCUGCAAAGCCCUGGAAGCCUGUGACUUAAAAGUCCGGAGAGGGUGGCAAUUGCUUCCUCGAAGACAU	0.43
CAGCCUGACCAAAAUGGUGAAACCUCCUCUCUACUAAAACUACAAAAAUUAACUGGGUGUGGUGGCGCGUGCCUGUAAUCCCAGCUACUCGGGAAGCUGAGGCAGGUGAA	0.733
UCCCUACCCUCACAAAAGUGGCCACGUUGCAAUAAAAAUUGUGGCAGAUUACAGAAUGUUGCCUUGUUUUCCUUGGAAAUUUUGCAAAUUGUUAUGUGAAAUUUUAGGGU	0.958
AAGGCUCUUGUUGCUGUAAUUUAGAGAGGAGCUCUGUGUCCUUGGCCAGUCAAGUAAGUUCCUGGAUCUUUGGCAAAGCCAGAGGAAGAAAGGAGCUACCUGCCCUUUCC	0.314

Sample 5
Target: Histone acetyltransferase KAT6A, winged helix 2, GST fusion (KAT6A, Homo sapiens, UniProt Q92794, residues 85-181)
Technique: protein binding microarray
Molecule type: double-stranded DNA, one strand shown
Sample: in vitro
Tested at: not given
Setting: 8-mer, flanks averaged, mean of 2 arrays, mostly near background
Baseline: not given
Direction: higher = stronger binding
Residues (chain): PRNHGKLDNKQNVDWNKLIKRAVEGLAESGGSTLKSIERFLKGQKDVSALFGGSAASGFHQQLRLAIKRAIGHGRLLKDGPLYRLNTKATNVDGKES
Oligonucleotide	E-score
ATAGGAGC	-0.0687
AAATTCCG	-0.00387
CTACTGAG	-0.087
AACCTCAC	-0.117
ACAAGGTA	-0.0533
ATCGCCGA	0.21
TACACCTA	-0.107
AGCAGTGC	0.0468
AAGACCTC	-0.0266
AGCATACG	0.0616
CGAGGCCC	0.0704
ATTGCGTC	-0.00728
CCATCGGA	0.0151
AGAAGCAC	-0.0798
AAGTGCCT	-0.0902
GGGTACGA	0.022
TACGCTGA	-0.00781
CGGGGGAC	0.14
CGTTCTAC	0.0127

Some of these lines once more (sample 3):
Oligonucleotide	E-score
CTGTCTGC	-0.0996
AAGTGTGC	0.0646
AGTGCATC	-0.00534
GCCATCCC	-0.279
CAGTACAC	-0.0335
